# Experimental data gathered from unrelated publications.
# A part holds a random share of what one study measured. Changes are numbered by the printed parent chain.

# Set 1
# Target: Ras GTPase-activating protein-binding protein 1, full length (G3BP1, Homo sapiens, UniProt Q13283)
# Sequence of UniProt Q13283 (whole entry, looked up): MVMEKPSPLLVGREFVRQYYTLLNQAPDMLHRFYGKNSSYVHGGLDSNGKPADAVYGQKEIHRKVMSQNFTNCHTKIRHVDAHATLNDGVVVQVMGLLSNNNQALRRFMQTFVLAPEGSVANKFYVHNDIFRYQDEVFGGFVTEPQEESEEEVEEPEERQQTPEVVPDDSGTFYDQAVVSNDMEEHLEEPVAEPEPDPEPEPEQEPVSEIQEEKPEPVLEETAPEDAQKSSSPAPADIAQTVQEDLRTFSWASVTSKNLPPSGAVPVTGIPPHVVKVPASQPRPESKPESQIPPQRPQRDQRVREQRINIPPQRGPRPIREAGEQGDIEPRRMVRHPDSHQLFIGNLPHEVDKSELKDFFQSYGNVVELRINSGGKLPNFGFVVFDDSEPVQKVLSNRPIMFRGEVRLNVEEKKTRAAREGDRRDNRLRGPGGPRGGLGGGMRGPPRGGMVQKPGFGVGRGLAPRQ
# Technique: RNA Bind-n-Seq
# Molecule type: RNA
# Medium: in vitro
# Concentration: 200 nM
# Notes: whole 134-nt RNA, ends assumed
# With: 150 mM LiCl
# Relative to: input library
# Reading: higher = stronger binding
# Library: 7-deaza-guanosine replaces G
# Constant ends, left off below: GGGAGUUCUACAGUCCGACGAUC … UGGAAUUCUCGGGUGUCAAGG
Strand,log2 enrichment
UAACUUUAGAGGAGGAUCUGAUGGAUAUGGCAGUGGACGUGGAUUUGGGGAUGGCUAUAAUGGGUAUGGUGGAGGACCUGGAGGUGGCAA,-0.0696
CCUGUGCUACACAUCGUAUGUACCGAAUCGGGAAAAAAAGGGGAAAAAAAGGAAAAAAAGGAAAGUAUUAUGUUACGCCGUUCGGAUCUG,0.24
AAGUCCUGUGCUACACAUCGUAUGUACCGAAUCGGUUUUGGUUUUGGGUUUUGGGGAAAGUAUUAUGUUACGCCGUUCGGAUCUGCACUU,-0.383
UGGGAGGUGGAUUUUGUUUAUUUUUUUAGCUCAGUUCCAGGGGUGGGAAUUUUUUUUUAAUAUGUGUCAUGAAUAAAGUUGUUUUUGAAA,0.125
CUGUGCUACACAUCGUAUGUACCGAAUCGGGGAAAAAAAGGGGUUUGGGGAAAAAAAGGGGAAAGUAUUAUGUUACGCCGUUCGGAUCUG,-0.293
UCAAGUCCUGUGCUACACAUCGUAUGUACCGAAUCGGGGUUGGGGUUGGUUGGGGAAAGUAUUAUGUUACGCCGUUCGGAUCUGCACUUC,0.0893
CUCAAGUCCUGUGCUACACAUCGUAUGUACCGAAUCGGGGAAGGAAGGGAAGGAAAGUAUUAUGUUACGCCGUUCGGAUCUGCACUUCCA,-0.806
GUCCUGUGCUACACAUCGUAUGUACCGAAUCGGCCCCCGGGGCCCCCGGCCCCCGGGGAAAGUAUUAUGUUACGCCGUUCGGAUCUGCAC,-1.8

# Set 2
# Target: CCND3, cyclin fold, Cln2 fusion (human)
# Technique: yeast growth competition, sequencing
# Medium: yeast
# Notes: weak parent motif
# Relative to: not given
# Reading: higher = stronger binding
# Starting sequence: E2F1 docking peptide (human); PPVKRRLDFETDH; partner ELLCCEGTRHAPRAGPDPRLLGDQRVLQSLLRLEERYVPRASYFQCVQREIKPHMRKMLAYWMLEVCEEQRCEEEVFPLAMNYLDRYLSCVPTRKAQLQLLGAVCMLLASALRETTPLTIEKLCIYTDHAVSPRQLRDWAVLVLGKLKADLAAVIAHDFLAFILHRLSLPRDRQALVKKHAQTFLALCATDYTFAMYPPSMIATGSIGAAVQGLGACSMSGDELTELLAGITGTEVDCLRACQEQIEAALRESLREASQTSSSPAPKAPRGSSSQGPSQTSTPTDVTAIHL
Substitution,normalised enrichment score
PNVKRRLDFETDH [P2N],0.381
PPVIRRLDFETDH [K4I],0.25
PPVRRRLDFETDH [K4R],0.897
PPVFRRLDFETDH [K4F],-0.131
PPVKDRLDFETDH [R5D],0.152
PPVKRRLDFMTDH [E10M],-0.00277
PPVKRRLDFDTDH [E10D],0.896
PPWKRRLDFETDH [V3W],0.0963
PPVHRRLDFETDH [K4H],0.217
PPVKVRLDFETDH [R5V],0.31
PPVKRRLMFETDH [D8M],-0.0788
PPVKRRLDFERDH [T11R],-0.0371
PPVKRRPDFETDH [L7P],0.266
PPVKRRLDFETKH [D12K],0.102
PPVKRRLIFETDH [D8I],0.212
PPCKRRLDFETDH [V3C],0.317
PAVKRRLDFETDH [P2A],0.0935
PPVKRRGDFETDH [L7G],-0.0919
PPVKRRLDFETTH [D12T],-0.0944
PPVKRRLHFETDH [D8H],0.00523
PPVKRRLDFEYDH [T11Y],0.308
PPVKWRLDFETDH [R5W],0.402
PPVKRRLDFEDDH [T11D],0.892
PPVNRRLDFETDH [K4N],0.357
PPVKRRLDHETDH [F9H],0.144

# Set 3
# Target: Histone acetyltransferase KAT6A, winged helix 1, GST fusion (KAT6A, Homo sapiens, UniProt Q92794, residues 1-85)
# Technique: protein binding microarray
# Molecule type: double-stranded DNA, one strand shown
# Medium: in vitro
# Concentration: not given
# Notes: 8-mer, flanks averaged, mean of 2 arrays, mostly near background
# Relative to: not given
# Reading: higher = stronger binding
# Target sequence (chain): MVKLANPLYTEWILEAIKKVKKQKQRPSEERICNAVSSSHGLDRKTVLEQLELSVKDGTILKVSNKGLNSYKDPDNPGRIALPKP
Strand,E-score
GCGCGAAA,0.204
GGAACGAC,-0.0598
GCGGTGCA,0.213
CAAGTTCC,-0.038
AACTGTAG,-0.174
ATCGTTAG,-0.0673
GATAGTGC,-0.0464
GATACGCC,0.212
TCGGGAGA,0.0681
CAAGCGGC,0.354
AGGTCTCA,-0.213
TACCTCGA,-0.251
CAAGGTCA,-0.0865
AAGTTGGC,-0.0566
GAAGCCCC,0.0549
CCAGCTTC,-0.24
CGATGTAC,0.0427
ACATTACG,0.0583
AAAGTCGC,-0.0278
AATATACG,0.219
GAACATAC,-0.0444
AACAGGTA,-0.113

# Mixed results
Substance,target,test,test system,conditions,how to read,quantity,result
"PhoQ, residues 284 288 289 292 302 303 GASLAW","PhoP, residues 12 14 15 18 19 AQALL (Escherichia coli, UniProt P23836)","Sort-seq, measured: YFP reporter",E. coli,"PhoQ-PhoP variant library, with: 10 µM Mg2+","relative to: high Mg2+ state, higher = stronger signaling",fold induction,2.97

# Some of these lines once more (set 2):
Substitution,normalised enrichment score
PPVIRRLDFETDH [K4I],0.25
PPVRRRLDFETDH [K4R],0.897
PPVFRRLDFETDH [K4F],-0.131
PPVKDRLDFETDH [R5D],0.152
PPVKRRLDFMTDH [E10M],-0.00277
PPVKRRLDFDTDH [E10D],0.896
PPWKRRLDFETDH [V3W],0.0963
PPVHRRLDFETDH [K4H],0.217
